Measurements from different studies.
Each line is one published result; not all experiments were run side by side. Several values in a cell are separate wells, animals, samples, runs or records.

Structure (SMILES) | target or system | assay | test system | conditions | scale | measurement | value
CC(=O)NCCN(c1nc(NCc2n[nH]c3c2CCCC3)nc(N2CC3C(CCOc4cc(-c5scnc5C)ccc4CNC(=O)[C@@H]4C[C@@H](O)CN4C(=O)[C@@H](NC(=O)C4(F)CC4)C(C)(C)C)C3C2)n1)C(C)C (some centres unmarked) | BRD9 and VHL-elongin C-elongin B | SPR | immobilized BRD9 |  | reference: binary KD over ternary KD | cooperativity alpha | > 18
CC(C)(C)CC(C)(C)c1ccc(CO)cc1 | HBV core protein Cp149 dimer | solution NMR |  | 4 molar equivalents, pH 7.5, 295 K, average over eight residues | reference: apo Cp149 dimer | average chemical shift perturbation | 0.09 ppm
CCC1Sc2ccc(S(=O)(=O)CCC(=O)Nc3cccc4ccccc34)cc2NC1=O (centres unmarked) | P2X7 | ATP-evoked current, inhibitor, whole-cell patch clamp |  | 30 µM | reference: ATP alone | inhibition ratio | 0.7 and 0.87 and 0.78 and 0.88
c1ccc(-c2n[nH]cc2-c2ccnc3ccccc23)nc1 | SSK2 (Candida albicans) | kinase binding, MIB/MS competition | Candida albicans lysate | 1 µM | reference: DMSO | log2 fold change | -0.19
COC1CN([C@H]2CC[C@H]([C@@]3(C)Oc4c(Cl)cc(C(=O)NCc5c(SC)cc(C)[nH]c5=O)c(C)c4O3)CC2)C1 |  | RNA-seq, refers to: ZNRF3 | human, whole blood | dose not given, 24 h | reference: pretreatment baseline | log2 fold change | 1.23
Nc1ccc(Cc2ccccc2)cc1 | HBV core protein Cp149 dimer | solution NMR |  | 4 molar equivalents, pH 7.5, 295 K, average over eight residues | reference: apo Cp149 dimer | average chemical shift perturbation | 0.072 ppm
C=CC(=O)Nc1cccc(Cn2ncc3cnc(Nc4cnn(CCOC)c4)nc32)c1 | PRKCI human | binding, KINOMEscan |  | 100 nM | lower = stronger binding | percent of control | 72%
CC(=O)NCC1CCCCN1c1nc(N2CCN(c3nnc[nH]3)CC2)nc(N2CC3C(CCOc4cc(-c5scnc5C)ccc4CNC(=O)[C@@H]4C[C@@H](O)CN4C(=O)[C@@H](NC(=O)C4(F)CC4)C(C)(C)C)C3C2)n1 (some centres unmarked) | BRD9 and VHL-elongin C-elongin B | SPR | immobilized BRD9 |  | reference: binary KD over ternary KD | cooperativity alpha | > 19
Nc1ncc(-c2cc(-c3cnn(CC(F)(F)F)c3)ncc2F)nc1C(=O)NC1CNCC(F)C1 (centres unmarked) | ULK3 | KINOMEscan |  | 1 µM | reference: DMSO control | remaining binding | 94%
CC(C)CCc1ccc(N)cc1 | HBV core protein Cp149 dimer | solution NMR |  | 4 molar equivalents, pH 7.5, 295 K, average over eight residues | reference: apo Cp149 dimer | average chemical shift perturbation | 0.064 ppm
C=CC(=O)N1[C@@H](c2ccc3c(c2)OCO3)c2[nH]c3ccccc3c2C[C@H]1C(=O)N1CCN(C)CC1 | human cyclin E1 N112C-3xFLAG:CDK2 | co-IP with TMT proteomics, refers to: RPSA |  | concentration not given, P08865 | reference: wild type DMSO | relative co-enrichment | 127%
CC[C@H](C)[C@H](NC(=O)[C@@H]1CCCN1C(=O)[C@@H](NC(=O)[C@H](C)N)C(C)C)C(=O)N[C@@H](C)C(=O)N[C@@H](CCC(N)=O)C(=O)N[C@@H](CCCCN)C(=O)N[C@@H](CO)C(=O)N[C@@H](CCC(=O)O)C(=O)N1CCC[C@H]1C(=O)N[C@@H](Cc1ccccc1)C(=O)N[C@@H](CCCCN)C(=O)N[C@@H](CCCCN)C(=O)N[C@@H](CCCCN)C(=O)N[C@@H](CCCCNC(=O)CCCCCNC(=S)Nc1ccc2c(c1)C(=O)OC21c2ccc(O)cc2Oc2cc(O)ccc21)C(N)=O | BIRC2 (human) |  |  | concentration not given, 10-fold competition | reference: no competitor | log2 fold change | 8.81
CCCCCCc1ccc2cc(O)ccc2c1 | HBV core protein Cp149 dimer | solution NMR |  | 4 molar equivalents, pH 7.5, 295 K, average over eight residues | reference: apo Cp149 dimer | average chemical shift perturbation | 0.027 ppm
O=c1c(-c2cccc(F)c2)c[nH]c2ccnc(Cl)c12 | WDR5 |  |  |  | reference: parent hit compound, negative = stronger binding | binding free energy change | -0.61 kcal/mol
CC(C)Oc1ccc(N)cc1 | HBV core protein Cp149 dimer | solution NMR |  | 4 molar equivalents, pH 7.5, 295 K, average over eight residues | reference: apo Cp149 dimer | average chemical shift perturbation | 0.035 ppm
CCCCCC=CC=C1C(=O)C=CC1CC=CCCCC(=O)O (centres unmarked) | hippocalcin (human) | IA-probe cysteine labelling, covalent modifier, competitive isoTOP-ABPP | proteome, soluble, MDA-MB-231 | 100 µM, 60 min, in vitro | reference: DMSO over compound, higher = stronger blockade | isoTOP-ABPP ratio | 6.8
Fc1ccc(Nc2nc(NC3CCCCC3)c3ccccc3n2)cc1F | β2AR/β1AR ICL3 chimera | β-arrestin2 recruitment, antagonist, BRET |  | together with: isoprenaline 1 µM |  | pIC50 | 5.7
Cc1cccc(O[C@H]2CCC[C@@H](C(C)CNCc3ccncc3)C2)c1 (relative stereo) | kappa opioid receptor (human) | binding, Cerep safety panel |  | 10 µM |  | inhibition | 83%
CC(=O)NCCN(c1nc(N2CC(Oc3ccccc3)C2)nc(N2CC3C(CCOc4cc(-c5scnc5C)ccc4CNC(=O)[C@@H]4C[C@@H](O)CN4C(=O)[C@@H](NC(=O)C4(F)CC4)C(C)(C)C)C3C2)n1)C(C)C (some centres unmarked) | BRD9 and VHL-elongin C-elongin B | SPR | immobilized BRD9 |  | reference: binary KD over ternary KD | cooperativity alpha | > 57
Cc1ncsc1-c1ccc(C(C)NC(=O)C2CC(O)CN2C(=O)C(NC(=O)CCCCCCCCCCN2CCCC(Nc3ncc(Cl)c(Nc4ccccc4S(=O)(=O)C(C)C)n3)C2)C(C)(C)C)cc1 (centres unmarked) | 22Rv1 | RNA-seq, refers to: PDIK1L |  | concentration not given | reference: DMSO | log2 fold change | -1.86

Some of these lines once more:
Structure (SMILES) | target or system | assay | test system | conditions | scale | measurement | value
CC(=O)NCCN(c1nc(N2CC(Oc3ccccc3)C2)nc(N2CC3C(CCOc4cc(-c5scnc5C)ccc4CNC(=O)[C@@H]4C[C@@H](O)CN4C(=O)[C@@H](NC(=O)C4(F)CC4)C(C)(C)C)C3C2)n1)C(C)C (some centres unmarked) | BRD9 and VHL-elongin C-elongin B | SPR | immobilized BRD9 |  | reference: binary KD over ternary KD | cooperativity alpha | > 57
CC(C)Oc1ccc(N)cc1 | HBV core protein Cp149 dimer | solution NMR |  | 4 molar equivalents, pH 7.5, 295 K, average over eight residues | reference: apo Cp149 dimer | average chemical shift perturbation | 0.035 ppm
